Experimental data of several laboratories.
± gives the spread as reported.

Structure (SMILES) = O=C([O-])CN1CCN(CC(=O)[O-])CCN(CC(=O)[O-])CCN(CC(=O)[O-])CC1.[64Cu+2]; system = human serum; conditions = 20 h, 37 °C, added: 64Cu; measurement = radiometal bound to chelator; value = 74%
Structure (SMILES) = CC12CC(c3ccc(S(C)(=O)=O)cc3)C3=C4CCC(=O)C=C4CCC3C1CCC2(O)C(F)(F)C(F)(F)F (stereo not shown); system = human, fasted, plasma; conditions = oral, 4 mg, alone, without itraconazole; measurement = AUC(0-11 d), geometric mean; value = 321 ng·h/mL
Structure (SMILES) = O=C(NCCCN(CCCCN(CCCNC(=O)c1cccc(=O)n1[O-])C(=O)c1cccc(=O)n1[O-])C(=O)c1cccc(=O)n1[O-])c1cccc(=O)n1[O-].[89Zr+4]; test = radio-TLC; system = PBS; conditions = 5 d, pH 7.4, 37 °C, added: Mg^2+ 10-fold excess; measurement = intact complex; value = 98.6 ± 2%
Structure (SMILES) = C=CC(=O)Nc1cc(Nc2nccc(-c3cn(C4CC4)c4ccccc34)n2)c(OC)cc1N(C)CCNC; test = radiolabelled metabolite profiling; system = human male, plasma; conditions = oral, 110 mg, 24 h; measurement = plasma concentration; value = 52.3 ng/g
Structure (SMILES) = Oc1cc2nc(c1)CNCc1cc(O)cc(n1)CNC2; system = mouse liver microsomes; conditions = 2 µM, time not given; measurement = compound remaining; value = 77%
Structure (SMILES) = CC[C@H](C)[C@H](N)C(=O)N[C@@H](CC(C)C)C(=O)N1CCC[C@H]1C(=O)N[C@@H](Cc1c[nH]c2ccccc12)C(=O)N[C@@H](CCCCN)C(=O)N[C@@H](Cc1c[nH]c2ccccc12)C(=O)N1CCC[C@H]1C(=O)N[C@@H](Cc1c[nH]c2ccccc12)C(=O)N[C@@H](Cc1c[nH]c2ccccc12)C(=O)N1CCC[C@H]1C(=O)N[C@@H](Cc1c[nH]c2ccccc12)C(=O)N[C@@H](CCCNC(=N)N)C(=O)N[C@@H](CCCNC(=N)N)C(N)=O; test = fluorescence spectroscopy; system = DMPC SUVs; conditions = lipid/peptide 50:1, excitation 295 nm, added: lipid 726 µM; measurement = Trp emission maximum; value = 353 nm
Structure (SMILES) = O=[11C](OC(C(F)(F)F)C(F)(F)F)N1CCC(CNS(=O)(=O)c2ccc(Cl)cc2)CC1; test = PET; system = Sprague-Dawley rat, striatum; conditions = intravenous, dose not given, baseline; measurement = radioactivity uptake; value = 1.75 SUV
Structure (SMILES) = O=C([O-])CN1CCN(CC(=O)[O-])CCN(CC(=O)NC[C@H]2CC[C@H](C(=O)N[C@H](Cc3cnc4ccccc4c3)C(=O)NCCCC[C@H](NC(=O)N[C@@H](CCC(=O)O)C(=O)O)C(=O)O)CC2)CCN(CC(=O)[O-])CC1.[64Cu+2]; system = prostate cancer patients; conditions = 140 MBq, 24 h post-injection, sample A cm from patient; measurement = radiation exposure rate; value = < 2.4 µSv/h
Structure (SMILES) = CCC/C(=C\C1=C(F)C(=O)c2ccccc2C1=O)C(=O)N(CC)CC; system = human plasma; conditions = 1 µM, 37 °C; measurement = t1/2; value = 165 h
Structure (SMILES) = N=C(N)NCCC[C@@H]1NC(=O)[C@H](Cc2c[nH]c3ccccc23)NC(=O)[C@@H](CC2CCCCC2)NC(=O)[C@@H]2CCCN2C(=O)[C@@H](NC(=O)CCc2ccccc2)CCCNC1=O; system = C57BL/6J mice, plasma; conditions = intravenous, 1 mg/kg, two-compartment model; measurement = elimination rate constant; value = 0.00282 s⁻¹
Structure (SMILES) = Oc1ccc2ccccc2c1/N=N/c1ccccc1; system = rat whole blood; conditions = 5.0 µg/L, 30 days, -20 °C, long-term storage; measurement = measured concentration; value = 5.12 µg/L
Structure (SMILES) = Cc1cc2c(cc1C1(c3ncc(C(=O)O)cn3)CC1)C(C)(C)CCC2(C)C; system = Sprague-Dawley rat, male, plasma; conditions = oral, 100 mg/kg, 9 h, sesame oil vehicle; measurement = HDL level; value = 51 ± 3.2 mg/dL
Structure (SMILES) = Cc1[nH]nc2c1N=C(c1ccccc1Cl)c1cnc(NCCOCCO)cc1N2; system = human male, urine; conditions = oral, 10 mg, 0-72 h; measurement = urinary excretion; value = 0.31 %Dose
Structure (SMILES) = CN(C)c1cc(CN2CCCCC2)c(O)c2c1C[C@H]1C[C@H]3[C@H](N(C)C)C(O)=C(C(N)=O)C(=O)[C@@]3(O)C(O)=C1C2=O; system = cynomolgus monkey, plasma; conditions = intravenous, 5 mg/kg; measurement = Tmax; value = 0.2 h
Structure (SMILES) = COc1cc(NC(C)=O)c2c(c1O)-c1c(OC)c(OC)cc3c1C(C2)N(C)CC3 (stereo not shown); system = rat brain homogenate; conditions = 50 µg/mL, 40 d, -20 °C, long-term storage; measurement = remaining compound; value = 86.6 ± 2.2%
Structure (SMILES) = COc1cc(O)c(-c2cc(-c3cc(-c4c(O)cc(OC)c5c4C[C@@H](C)N[C@@H]5C)c4cc(C)cc(OC)c4c3O)c(O)c3c(OC)cc(C)cc23)c2c1[C@@H](C)N[C@H](C)C2; test = metabolic stability; system = human, liver microsomes; conditions = 1 µM, 30 min; measurement = compound remaining; value = 98%

Repeated from above:
Structure (SMILES) = N=C(N)NCCC[C@@H]1NC(=O)[C@H](Cc2c[nH]c3ccccc23)NC(=O)[C@@H](CC2CCCCC2)NC(=O)[C@@H]2CCCN2C(=O)[C@@H](NC(=O)CCc2ccccc2)CCCNC1=O; system = C57BL/6J mice, plasma; conditions = intravenous, 1 mg/kg, two-compartment model; measurement = elimination rate constant; value = 0.00282 s⁻¹
Structure (SMILES) = Oc1ccc2ccccc2c1/N=N/c1ccccc1; system = rat whole blood; conditions = 5.0 µg/L, 30 days, -20 °C, long-term storage; measurement = measured concentration; value = 5.12 µg/L
